Measured values of several laboratories.
Lines come from different studies, so protocols differ. Numbers after ± are the reported error.
PRMT5: Protein arginine N-methyltransferase 5 (PRMT5, Homo sapiens, UniProt O14744)
UniProt O14744, sequence (whole entry, looked up): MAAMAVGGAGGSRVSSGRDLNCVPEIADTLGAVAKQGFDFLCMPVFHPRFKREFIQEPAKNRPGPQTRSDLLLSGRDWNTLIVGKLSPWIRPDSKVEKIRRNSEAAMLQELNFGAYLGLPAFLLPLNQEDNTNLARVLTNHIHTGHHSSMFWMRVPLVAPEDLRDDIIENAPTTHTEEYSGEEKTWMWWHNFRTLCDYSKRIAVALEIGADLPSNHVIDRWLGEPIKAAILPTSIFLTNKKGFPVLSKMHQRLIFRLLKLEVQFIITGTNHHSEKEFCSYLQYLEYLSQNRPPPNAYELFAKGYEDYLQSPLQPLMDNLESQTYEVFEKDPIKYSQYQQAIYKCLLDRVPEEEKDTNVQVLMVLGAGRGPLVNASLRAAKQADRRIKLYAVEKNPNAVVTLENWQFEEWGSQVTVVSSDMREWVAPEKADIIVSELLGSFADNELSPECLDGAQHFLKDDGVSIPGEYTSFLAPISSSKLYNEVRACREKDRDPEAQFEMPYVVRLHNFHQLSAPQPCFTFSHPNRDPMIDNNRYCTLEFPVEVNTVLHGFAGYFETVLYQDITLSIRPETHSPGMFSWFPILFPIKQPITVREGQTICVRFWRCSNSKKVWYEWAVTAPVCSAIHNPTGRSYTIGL
UniProt Q8NER1, sequence (whole entry, unmodified, looked up): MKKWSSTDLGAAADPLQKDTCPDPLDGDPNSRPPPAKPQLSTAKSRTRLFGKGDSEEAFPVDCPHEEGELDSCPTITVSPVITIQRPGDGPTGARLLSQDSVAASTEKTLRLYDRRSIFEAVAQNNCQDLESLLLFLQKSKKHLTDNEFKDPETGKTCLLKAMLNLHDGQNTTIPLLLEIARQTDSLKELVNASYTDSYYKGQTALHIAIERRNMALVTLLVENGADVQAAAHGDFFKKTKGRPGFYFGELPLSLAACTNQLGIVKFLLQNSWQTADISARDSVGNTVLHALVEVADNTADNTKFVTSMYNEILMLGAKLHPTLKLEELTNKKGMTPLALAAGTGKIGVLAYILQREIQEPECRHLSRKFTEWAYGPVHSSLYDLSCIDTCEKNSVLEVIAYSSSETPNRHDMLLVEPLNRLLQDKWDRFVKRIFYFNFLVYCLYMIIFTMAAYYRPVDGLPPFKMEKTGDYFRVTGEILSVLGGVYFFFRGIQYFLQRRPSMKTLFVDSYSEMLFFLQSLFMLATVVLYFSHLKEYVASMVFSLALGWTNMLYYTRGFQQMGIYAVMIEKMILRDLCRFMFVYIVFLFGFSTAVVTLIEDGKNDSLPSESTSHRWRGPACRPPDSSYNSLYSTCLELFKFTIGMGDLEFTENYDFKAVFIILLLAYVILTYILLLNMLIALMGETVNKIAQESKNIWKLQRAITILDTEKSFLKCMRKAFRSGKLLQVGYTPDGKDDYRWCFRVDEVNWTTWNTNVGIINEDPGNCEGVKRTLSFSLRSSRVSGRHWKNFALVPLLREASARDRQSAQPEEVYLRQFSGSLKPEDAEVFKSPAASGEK
UniProt Q8IWT6, sequence (whole entry, unmodified, looked up): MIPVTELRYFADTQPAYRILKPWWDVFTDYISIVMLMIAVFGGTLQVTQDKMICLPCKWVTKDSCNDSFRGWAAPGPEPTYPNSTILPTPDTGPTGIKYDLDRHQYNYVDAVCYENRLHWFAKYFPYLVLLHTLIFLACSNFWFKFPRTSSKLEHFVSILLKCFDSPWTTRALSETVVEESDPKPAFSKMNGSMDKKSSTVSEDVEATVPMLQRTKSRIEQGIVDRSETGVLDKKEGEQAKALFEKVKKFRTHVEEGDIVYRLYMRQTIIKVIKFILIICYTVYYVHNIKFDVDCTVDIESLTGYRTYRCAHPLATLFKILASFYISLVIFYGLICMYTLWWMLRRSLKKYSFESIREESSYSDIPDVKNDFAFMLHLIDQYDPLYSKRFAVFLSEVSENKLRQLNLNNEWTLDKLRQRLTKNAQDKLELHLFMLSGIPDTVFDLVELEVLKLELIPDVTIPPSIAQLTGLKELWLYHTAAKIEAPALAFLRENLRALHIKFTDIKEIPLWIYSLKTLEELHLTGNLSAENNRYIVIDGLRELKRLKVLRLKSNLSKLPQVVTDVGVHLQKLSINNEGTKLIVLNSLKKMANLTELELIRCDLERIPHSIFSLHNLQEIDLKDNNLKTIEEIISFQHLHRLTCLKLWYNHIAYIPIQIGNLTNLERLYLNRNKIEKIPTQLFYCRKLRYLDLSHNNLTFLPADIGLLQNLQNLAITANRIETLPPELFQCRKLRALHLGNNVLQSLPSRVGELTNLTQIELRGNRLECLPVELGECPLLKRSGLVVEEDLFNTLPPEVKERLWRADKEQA
UniProt Q704Y3, sequence (whole entry, looked up): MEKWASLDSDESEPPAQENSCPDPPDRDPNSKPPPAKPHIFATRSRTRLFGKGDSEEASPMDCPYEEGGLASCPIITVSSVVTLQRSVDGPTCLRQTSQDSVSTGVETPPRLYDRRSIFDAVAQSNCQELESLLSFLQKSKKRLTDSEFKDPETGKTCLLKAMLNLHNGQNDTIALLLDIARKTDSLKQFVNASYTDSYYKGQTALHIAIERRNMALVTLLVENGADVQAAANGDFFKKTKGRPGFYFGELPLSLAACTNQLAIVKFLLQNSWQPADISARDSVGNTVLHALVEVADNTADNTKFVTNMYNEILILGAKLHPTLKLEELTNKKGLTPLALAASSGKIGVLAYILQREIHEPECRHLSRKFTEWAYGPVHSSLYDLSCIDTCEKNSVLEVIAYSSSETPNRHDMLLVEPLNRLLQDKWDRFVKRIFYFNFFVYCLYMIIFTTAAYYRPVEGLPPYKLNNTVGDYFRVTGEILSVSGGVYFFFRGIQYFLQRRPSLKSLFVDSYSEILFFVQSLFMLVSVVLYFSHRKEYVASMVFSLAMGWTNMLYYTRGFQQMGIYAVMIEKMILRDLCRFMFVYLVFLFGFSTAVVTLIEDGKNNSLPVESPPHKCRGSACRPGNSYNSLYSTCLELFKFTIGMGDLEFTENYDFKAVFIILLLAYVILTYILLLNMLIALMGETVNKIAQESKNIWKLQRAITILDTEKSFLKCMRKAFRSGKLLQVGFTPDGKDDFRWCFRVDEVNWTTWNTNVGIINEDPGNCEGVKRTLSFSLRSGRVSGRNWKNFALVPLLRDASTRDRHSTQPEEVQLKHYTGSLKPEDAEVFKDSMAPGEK
UniProt P31645, sequence (whole entry, looked up): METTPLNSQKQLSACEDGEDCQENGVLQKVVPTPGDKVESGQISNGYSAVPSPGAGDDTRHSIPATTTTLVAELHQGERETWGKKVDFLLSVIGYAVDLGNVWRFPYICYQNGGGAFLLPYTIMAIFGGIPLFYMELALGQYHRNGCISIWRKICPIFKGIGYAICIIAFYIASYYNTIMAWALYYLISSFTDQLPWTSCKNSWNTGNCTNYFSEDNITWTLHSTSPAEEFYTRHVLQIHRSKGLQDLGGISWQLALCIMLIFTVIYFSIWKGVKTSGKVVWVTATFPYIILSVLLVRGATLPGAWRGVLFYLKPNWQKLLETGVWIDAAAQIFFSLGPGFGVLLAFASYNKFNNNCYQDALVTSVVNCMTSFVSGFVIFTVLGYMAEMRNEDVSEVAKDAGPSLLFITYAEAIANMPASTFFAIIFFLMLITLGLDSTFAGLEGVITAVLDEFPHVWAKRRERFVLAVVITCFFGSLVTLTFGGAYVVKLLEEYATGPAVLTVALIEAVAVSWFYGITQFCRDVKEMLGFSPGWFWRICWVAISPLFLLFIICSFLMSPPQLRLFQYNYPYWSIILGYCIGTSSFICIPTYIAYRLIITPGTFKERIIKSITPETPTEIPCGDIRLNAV
UniProt Q9UBL9, sequence (whole entry, unmodified, looked up): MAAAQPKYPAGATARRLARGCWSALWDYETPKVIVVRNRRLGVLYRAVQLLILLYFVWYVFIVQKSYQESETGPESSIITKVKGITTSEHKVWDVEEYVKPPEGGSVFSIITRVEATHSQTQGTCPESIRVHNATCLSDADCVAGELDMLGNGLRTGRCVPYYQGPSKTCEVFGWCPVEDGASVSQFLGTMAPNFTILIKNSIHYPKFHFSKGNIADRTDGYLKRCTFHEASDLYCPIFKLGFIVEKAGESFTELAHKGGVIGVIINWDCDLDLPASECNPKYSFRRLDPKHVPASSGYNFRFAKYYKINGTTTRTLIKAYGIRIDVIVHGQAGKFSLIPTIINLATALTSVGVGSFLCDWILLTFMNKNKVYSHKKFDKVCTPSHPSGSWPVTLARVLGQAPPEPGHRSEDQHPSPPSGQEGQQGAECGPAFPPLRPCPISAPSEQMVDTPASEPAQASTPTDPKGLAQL
UniProt P35348, sequence (whole entry, looked up): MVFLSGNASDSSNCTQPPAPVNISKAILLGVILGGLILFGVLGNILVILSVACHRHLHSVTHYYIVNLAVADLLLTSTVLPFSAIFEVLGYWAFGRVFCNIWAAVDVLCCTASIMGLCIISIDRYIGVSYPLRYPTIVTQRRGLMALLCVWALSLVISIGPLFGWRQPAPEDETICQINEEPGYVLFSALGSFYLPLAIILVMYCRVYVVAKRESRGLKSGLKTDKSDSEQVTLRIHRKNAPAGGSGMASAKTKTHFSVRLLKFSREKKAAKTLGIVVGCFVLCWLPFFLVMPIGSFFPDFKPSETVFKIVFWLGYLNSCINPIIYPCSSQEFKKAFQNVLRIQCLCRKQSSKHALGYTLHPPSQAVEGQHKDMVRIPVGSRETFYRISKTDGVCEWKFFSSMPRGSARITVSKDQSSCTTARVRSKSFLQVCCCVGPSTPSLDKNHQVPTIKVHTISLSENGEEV

Nc1ncnc2c1ncn2[C@@H]1O[C@H](COP(=O)(O)OP(=O)(O)OP(=O)(O)O)[C@@H](O)[C@H]1O
Hill coefficient (P2X purinoceptor 2 (P2RX2, Homo sapiens, UniProt Q9UBL9, R130A); channel activation, agonist; transfected HEK293 cells; physiological divalent cations, together with: 2 mM Ca2+ and 0.5 mM Mg2+): 1.6 ± 0.1

C(/C=C/c1sc2c3ccccc3ccc2[n+]1CCCc1ccccc1)=C1/Sc2c(ccc3ccccc23)N1CCCc1ccccc1.[I-]
Hill coefficient (PRMT5; inhibitor, scintillation proximity; together with: biotinylated histone H4 peptide substrate): 1.1

CCCCCCCC/C=C\CCCCCCCC(=O)NCCc1ccc(O)c(O)c1
Hill coefficient (Trpv1 (Mus musculus, UniProt Q704Y3); ion current, agonist, whole-cell patch clamp; HEK293): 2.67 ± 0.26

COc1cccc(OC)c1OCCNCC1COc2ccccc2O1 (stereo not shown)
Hill coefficient (ADRA1A (Homo sapiens, UniProt P35348); binding, antagonist, radioligand binding): 1.7

OO
Hill coefficient (alternative ancestral DyP peroxidase; peroxidase activity, substrate): 1.8

CCCCN1/C(=C/C=C/c2sc3ccc(Br)cc3[n+]2CCCC)Sc2ccc(Br)cc21.[I-]
Hill coefficient (PRMT5; inhibitor, scintillation proximity; together with: biotinylated histone H4 peptide substrate): 1.88

COc1cc(C(=O)NS(=O)(=O)c2ccccc2C)ccc1Cc1cn(C)c2ccc(NC(=O)OC3CCCC3)cc12
Hill coefficient (LRRC8A/LRRC8C (Homo sapiens, UniProt Q8IWT6+Q8TDW0, L134K/L136K); whole-cell patch clamp; HCT116 LRRC8-/- expressing heteromers; -100 mV): 1.01

Nc1nc2c(ncn2[C@@H]2O[C@@H]3COP(=O)(O)O[C@H]3[C@H]2O)c(=O)[nH]1
Hill coefficient (Cone cGMP-gated channel (Morone saxatilis, UniProt Q3I0N1+Q3I0N2); channel current, agonist, suction electrode; cone outer segments; single cone shown, together with: 0.2 µM Ca2+): 2.1

COc1cc(CNC(=O)CCCC/C=C/C(C)C)ccc1O
Hill coefficient (TRPV1 (Homo sapiens, UniProt Q8NER1, G492W); agonist, outside-out patch clamp; G492W mutant): 1.1

N#Cc1ccc2[nH]cc(CCCCN3CCN(c4ccc5oc(C(N)=O)cc5c4)CC3)c2c1
Hill coefficient (SLC6A4 (Homo sapiens, UniProt P31645); serotonin uptake, inhibitor; COS-7 expressing SLC6A4; 60 min preincubation, together with: [3H]5-HT): 1.66 ± 0.24
